Experimental data gathered from unrelated publications.
Each numbered part is a random draw from the data of one study; scales do not carry over between parts. Changes are numbered by the printed parent chain.
Sequence of UniProt O15294 (whole entry, looked up): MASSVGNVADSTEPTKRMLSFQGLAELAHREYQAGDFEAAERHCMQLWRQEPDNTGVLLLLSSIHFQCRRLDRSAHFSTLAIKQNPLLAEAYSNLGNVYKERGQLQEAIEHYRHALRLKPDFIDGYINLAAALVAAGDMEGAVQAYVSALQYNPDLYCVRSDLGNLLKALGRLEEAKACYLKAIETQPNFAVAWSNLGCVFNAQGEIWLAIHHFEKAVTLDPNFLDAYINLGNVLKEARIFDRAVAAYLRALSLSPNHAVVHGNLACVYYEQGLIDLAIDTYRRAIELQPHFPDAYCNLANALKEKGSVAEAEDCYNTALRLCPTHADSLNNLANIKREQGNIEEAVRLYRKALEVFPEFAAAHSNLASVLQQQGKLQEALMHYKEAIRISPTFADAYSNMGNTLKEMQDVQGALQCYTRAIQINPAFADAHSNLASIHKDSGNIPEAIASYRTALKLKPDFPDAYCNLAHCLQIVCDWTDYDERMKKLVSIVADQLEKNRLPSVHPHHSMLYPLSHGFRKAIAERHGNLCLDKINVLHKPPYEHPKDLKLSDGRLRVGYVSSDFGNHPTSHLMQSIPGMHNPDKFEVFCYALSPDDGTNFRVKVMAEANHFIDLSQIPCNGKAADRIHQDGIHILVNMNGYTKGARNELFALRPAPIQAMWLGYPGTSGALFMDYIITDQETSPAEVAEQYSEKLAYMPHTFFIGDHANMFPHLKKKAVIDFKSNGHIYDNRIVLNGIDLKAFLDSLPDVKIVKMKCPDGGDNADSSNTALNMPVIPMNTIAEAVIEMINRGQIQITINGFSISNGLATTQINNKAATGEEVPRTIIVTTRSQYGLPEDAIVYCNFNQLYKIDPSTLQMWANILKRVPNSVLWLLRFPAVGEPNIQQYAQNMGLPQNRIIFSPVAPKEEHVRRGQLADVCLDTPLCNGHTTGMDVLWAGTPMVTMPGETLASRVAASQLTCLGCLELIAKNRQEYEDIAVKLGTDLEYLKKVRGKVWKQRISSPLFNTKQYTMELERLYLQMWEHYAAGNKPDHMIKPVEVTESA

Set 1
Molecule: PhoQ, residues 284 288 289 292 302 303 WVSSAF
Technique: Sort-seq
Refers to: YFP reporter
Sample: E. coli
Setting: PhoQ-PhoP variant library
Together with: 10 µM Mg2+
Baseline: high Mg2+ state
Reading: higher = stronger signaling
Measurement: fold induction
PhoP, residues 12 14 15 18 19 NQCAL (Escherichia coli, UniProt P23836): 18.9
PhoP, residues 12 14 15 18 19 TQAML (Escherichia coli, UniProt P23836): 15.9
PhoP, residues 12 14 15 18 19 LHTVL (Escherichia coli, UniProt P23836): 1.08

Set 2
Target: ABI1, truncated, D143A, DHFR fusion (Arabidopsis thaliana)
Technique: DHFR PCA, deep sequencing
Sample: yeast
Setting: methotrexate growth selection, single substitutions
Together with: (+)-ABA 0.0091 µM
Baseline: wild-type fitted maximum
Reading: higher = stronger binding
Measurement: relative binding score
Parent: PYL1, truncated, DHFR fusion (Arabidopsis thaliana); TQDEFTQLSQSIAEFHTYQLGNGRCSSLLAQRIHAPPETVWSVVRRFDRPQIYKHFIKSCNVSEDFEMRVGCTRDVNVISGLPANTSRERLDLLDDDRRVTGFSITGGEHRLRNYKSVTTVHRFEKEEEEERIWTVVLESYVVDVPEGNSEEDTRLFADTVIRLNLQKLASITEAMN; partner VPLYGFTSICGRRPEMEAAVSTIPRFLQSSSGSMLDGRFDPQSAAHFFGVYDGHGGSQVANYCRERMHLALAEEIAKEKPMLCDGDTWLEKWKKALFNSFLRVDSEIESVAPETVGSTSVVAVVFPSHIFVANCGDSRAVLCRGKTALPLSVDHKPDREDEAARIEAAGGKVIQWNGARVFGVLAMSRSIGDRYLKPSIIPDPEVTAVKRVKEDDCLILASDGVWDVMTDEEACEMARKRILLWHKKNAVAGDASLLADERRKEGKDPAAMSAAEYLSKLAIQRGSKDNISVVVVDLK
E64N: 31%
Q51V: -0.188%
E109N: 45.1%
V161C: 47.3%
A175T: 12.5%
D159K: -1.7%
I52C: 11.6%
Q2V: 60.9%

Set 3
Target: TAR DNA-binding protein 43, full length, His tag (TARDBP, Homo sapiens, UniProt Q13148, residues 1-414)
Technique: RNA Bind-n-Seq
Molecule type: RNA
Sample: in vitro
Concentration: 20 nM
Setting: 6-mer, flanks averaged, single round
Together with: 150 mM LiCl
Baseline: input library
Reading: higher = stronger binding
Measurement: 6-mer enrichment (R)
GAAACC: 0.806
CAUAAG: 0.847
GGACUU: 1.03
CGCGCG: 1.01
CCCCUC: 1.28
GUCAGA: 0.891
CAAAUC: 0.83
GAAUAU: 0.922

Single results of other studies
SIKGAKPKYQIEYVF  minimum log2 enrichment ratio (UDP-N-acetylglucosamine--peptide N-acetylglucosaminyltransferase 110 kDa subunit (OGT, Homo sapiens, UniProt O15294); binding, phage display NGS; peptide; panning round 2; baseline: input library): 2

Some of these lines once more (set 2):
V161C: 47.3%
A175T: 12.5%
